Measurements gathered from unrelated publications.
Each line is one published result; not all experiments were run side by side.
JAK1: Tyrosine-protein kinase JAK1 (JAK1, Homo sapiens, UniProt P23458)
Sequence of UniProt P23458 (whole entry, looked up): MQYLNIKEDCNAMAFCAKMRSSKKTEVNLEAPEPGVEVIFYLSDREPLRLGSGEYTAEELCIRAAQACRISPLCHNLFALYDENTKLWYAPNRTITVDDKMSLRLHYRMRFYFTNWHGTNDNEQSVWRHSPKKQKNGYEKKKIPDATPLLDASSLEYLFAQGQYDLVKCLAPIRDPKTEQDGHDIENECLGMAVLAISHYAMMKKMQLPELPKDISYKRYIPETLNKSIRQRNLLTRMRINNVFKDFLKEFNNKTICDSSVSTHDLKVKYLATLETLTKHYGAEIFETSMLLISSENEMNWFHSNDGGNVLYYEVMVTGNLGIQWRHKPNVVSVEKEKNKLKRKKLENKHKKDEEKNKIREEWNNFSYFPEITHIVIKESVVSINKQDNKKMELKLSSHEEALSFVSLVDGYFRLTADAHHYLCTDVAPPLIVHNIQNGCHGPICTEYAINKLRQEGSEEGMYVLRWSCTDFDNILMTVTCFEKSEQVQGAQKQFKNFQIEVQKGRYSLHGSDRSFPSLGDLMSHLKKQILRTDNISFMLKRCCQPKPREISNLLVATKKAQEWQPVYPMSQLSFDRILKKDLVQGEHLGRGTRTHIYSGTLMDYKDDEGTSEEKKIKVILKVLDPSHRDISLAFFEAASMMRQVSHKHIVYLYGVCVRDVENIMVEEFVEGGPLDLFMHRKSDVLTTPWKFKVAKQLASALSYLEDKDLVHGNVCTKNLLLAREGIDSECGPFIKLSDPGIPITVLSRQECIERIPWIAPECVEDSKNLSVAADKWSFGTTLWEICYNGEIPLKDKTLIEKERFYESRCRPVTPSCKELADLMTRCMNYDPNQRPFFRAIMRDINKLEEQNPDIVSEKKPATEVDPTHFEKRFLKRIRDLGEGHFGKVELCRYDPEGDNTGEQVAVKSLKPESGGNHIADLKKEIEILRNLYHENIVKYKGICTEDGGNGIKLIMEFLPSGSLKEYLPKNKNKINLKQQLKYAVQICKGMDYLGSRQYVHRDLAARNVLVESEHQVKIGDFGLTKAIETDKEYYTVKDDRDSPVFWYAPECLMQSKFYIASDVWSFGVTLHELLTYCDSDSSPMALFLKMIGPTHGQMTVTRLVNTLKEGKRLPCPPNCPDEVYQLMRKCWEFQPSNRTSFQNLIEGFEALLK
JAK1 JH1 kinase domain: Tyrosine-protein kinase JAK1, JH1 kinase domain (JAK1, Homo sapiens, UniProt P23458)

SMILES	target	assay	system	setting	scale	measurement	result
COc1cc(-c2cncc3c2CN(C)Cc2cc(N4CCNCC4)ccc2-3)cc(OC)c1OC	JAK1	kinase activity	–	1 µM, human enzyme, with: ATP 10 µM	baseline: DMSO control	remaining activity	90%
C=CC(=O)N1CCC(C(=O)NCC(=O)N2CCN(c3nc(-c4cnc(N)nc4C(F)F)nc(N4CCOCC4)n3)CC2)CC1	JAK1 JH1 kinase domain	KINOMEscan	–	1 µM	–	remaining binding	100%
C[C@@H](c1ccc(-n2cnc3c(N)ncnc32)cc1)N1CCc2nn(C)c(Cc3ccccc3)c2C1=O	JAK1 JH1 kinase domain	KINOMEscan	–	0.1 µM	baseline: DMSO control	remaining binding	99%
C=CC(=O)N1CCC(COCC(=O)N2CCN(c3nc(-c4cnc(N)nc4C(F)F)nc(N4CCOC[C@@H]4C)n3)CC2)CC1	JAK1 JH1 kinase domain	KINOMEscan	–	1 µM	baseline: DMSO control	remaining binding	91%
Cc1cc(-c2ccnc3[nH]cc(F)c23)cc(F)c1[C@@]1(O)[C@H](C)CN(C(=O)CN)C[C@@H]1C	JAK1	ATP/ADP probe binding, KiNativ	HEK293T lysate	1 µM, activation loop domain 1	–	probe labelling inhibition	31%
Cc1cc(Nc2cc(N3CCN(C)CC3)nc(Sc3ccc(NC(=O)C4CC4)cc3)n2)[nH]n1	JAK1	kinase activity, KinaseProfiler	–	0.03 µM, species human	baseline: control	remaining activity	96%
Cc1cc(-c2ccnc3[nH]cc(F)c23)cc(F)c1[C@@]1(O)[C@H](C)CN(C2CCS(=O)(=O)CC2)C[C@@H]1C	JAK1	ATP/ADP probe binding, KiNativ	HEK293T lysate	10 µM, activation loop domain 1	–	probe labelling inhibition	11.4%
[2H]c1cc(C)c(NC(=O)c2cnc(Nc3cc(N4CCCCC4)nc(C)n3)s2)c(Cl)c1	JAK1	–	–	0.01 µM	–	inhibition	< 30%

For quick reference, copied from above:
SMILES	target	assay	system	setting	scale	measurement	result
Cc1cc(-c2ccnc3[nH]cc(F)c23)cc(F)c1[C@@]1(O)[C@H](C)CN(C2CCS(=O)(=O)CC2)C[C@@H]1C	JAK1	ATP/ADP probe binding, KiNativ	HEK293T lysate	10 µM, activation loop domain 1	–	probe labelling inhibition	11.4%
